Assay results of several laboratories.
Numbered parts are unrelated; each lists some results of a single study. “And” joins repeats or separate records; there may be more than shown.

Study 1 — effect on: enzyme activity; action: inhibitor; tested at: 20 µM; notes: hit confirmation; measurement: inhibition
Target: Replicase polyprotein 1ab, main protease (rep, Severe acute respiratory syndrome coronavirus 2, UniProt P0DTD1)
C[n+]1ccc(/C=C/c2c[nH]c3ccccc23)cc1: 6.4%
C=C1c2cccc(O)c2C(=O)C2C(=O)[C@]3(O)C(=O)C(C(N)=O)C(=O)[C@@H](N(C)C)[C@@H]3[C@@H](O)[C@H]12 (stereo partly drawn): 91%
C[C@@H](CN1CC(=O)NC(=O)C1)N1CC(=O)NC(=O)C1: 98.6%

Study 2 — action: inhibitor; tested at: 20 µM; measurement: inhibition
Target: Replicase polyprotein 1ab, nsp13 helicase (rep, Severe acute respiratory syndrome coronavirus 2, UniProt P0DTD1)
C[C@]12CC[C@@H]3c4ccc(O)cc4CC[C@H]3[C@@H]1C[C@@H](O)[C@@H]2O: -1.81%
CC(C)CNc1ccnc(NCc2csc(-c3ccccc3)n2)n1: -0.61%
CC[C@@H](CO)NCCN[C@@H](CC)CO: 3.55%
C[n+]1ccccc1C=NO: 4.27%
O=c1cc(-c2ccccc2)oc2cc(O)cc(O)c12: 7.35%
c1ccc(C2CNCc3ccccc32)cc1 (stereo not drawn): 4.66%
CC(=O)NCCc1c(Cc2ccccc2)[nH]c2ccccc12: -2.84%
NC[C@@H](CC(=O)O)c1ccccc1: 1.9%
COc1ccc(OC)c([C@@H](O)[C@H](C)N)c1: 8.09%
CN(C)Cc1ccc(-c2nc3cccc4c3n2CCNC4=O)cc1: 6.83%
C[C@H](Nc1ncnc2[nH]cnc12)c1cc2ccc(F)cc2nc1-c1ccccn1: -2.77% and -0.57%
CCC1=C[C@@H]2CN(C1)Cc1c([nH]c3ccccc13)[C@@](C(=O)OC)(c1cc3c(cc1OC)N(C)[C@H]1[C@@](O)(C(=O)OC)[C@H](OC(C)=O)[C@]4(CC)C=CCN5CC[C@]31[C@@H]54)C2: 2.93%
CCOP(=S)(OCC)Oc1cc(C)nc(C(C)C)n1: 11.3%
CC(=O)Nc1ccc(S(=O)(=O)Nc2ccc([N+](=O)[O-])cc2)cc1: 2.37%
CCCCCCCCCCCCCCOc1ccc(C(=O)O)o1: -5.25%
CC(=O)N(O)[C@@H]1c2cc(C#N)ccc2OC(C)(C)[C@H]1O: 0.28%
CC1(C)N=C(N)N=C(N)N1OCCCOc1cc(Cl)c(Cl)cc1Cl: -0.46%
O=C(O)[C@@H]1C[C@H](CP(=O)(O)O)CCN1: -4.74%
N=C(N)N: 2.2%
FC(F)(F)c1cccc(-c2noc(-c3cc(-c4ccccc4)c(C(F)(F)F)s3)n2)c1: 5.07%
CCOC(=O)[C@H](CCc1ccccc1)N[C@@H](C)C(=O)N1[C@H](C(=O)O)C[C@H]2CCCC[C@@H]21: 7.75%
CCS(=O)(=O)N1CCN(c2ccc(Nc3ncc(C(N)=O)c(NC4CC4)n3)cc2)CC1: 8.47%
C#C[C@]1(O)CC[C@H]2[C@@H]3CCC4=CCCC[C@@H]4[C@H]3CC[C@@]21C: 8.04%
COc1ccnc2[nH]cc(C(=O)C(=O)N3CCN(C(=O)c4ccccc4)C[C@H]3C)c12: -5.41%
COC1=C2C[C@@H](C)C[C@H](OC)[C@H](O)[C@@H](C)/C=C(\C)[C@H](OC(N)=O)[C@@H](OC)/C=C\C=C(/C)C(=O)NC(=CC1=O)C2=O: 13%

Study 3 — organism: Vesicular stomatitis virus; effect on: pseudovirus infection; method: FDA-approved drug library screen; tested at: concentration not given; notes: SARS-CoV-2 spike pseudotype; relative to: vehicle; measurement: GFP-positive cells
CCO.C[C@H]1c2cccc(O)c2C(O)=C2C(=O)[C@]3(O)C(O)=C(C(N)=O)C(=O)[C@@H](N(C)C)[C@@H]3[C@@H](O)[C@@H]21.C[C@H]1c2cccc(O)c2C(O)=C2C(=O)[C@]3(O)C(O)=C(C(N)=O)C(=O)[C@@H](N(C)C)[C@@H]3[C@@H](O)[C@@H]21.Cl.Cl.O: 88.2%
NC[C@H]1CC[C@H](C(=O)O)CC1: 95.7%
CCN1CC(CCN2CCOCC2)C(c2ccccc2)(c2ccccc2)C1=O.Cl.O (stereo not drawn): 128%
Cl.Cn1c(CCCC(=O)O)nc2cc(N(CCCl)CCCl)ccc21: 101%
NC(=O)N/N=C/c1ccc([N+](=O)[O-])o1: 89.7%

Study 4 — method: RNA Bind-n-Seq; molecule type: RNA; medium: in vitro; tested at: not given; relative to: input RNA pool; direction: higher = stronger binding; measurement: bound/input enrichment
Target: RING finger protein unkempt homolog, zinc fingers 1-6, GST-SBP tag (UNK, Homo sapiens, UniProt Q9C0B0, residues 30-357)
Notes: RNA with constant flanks, human and mouse sites, ends assumed
Construct (chain): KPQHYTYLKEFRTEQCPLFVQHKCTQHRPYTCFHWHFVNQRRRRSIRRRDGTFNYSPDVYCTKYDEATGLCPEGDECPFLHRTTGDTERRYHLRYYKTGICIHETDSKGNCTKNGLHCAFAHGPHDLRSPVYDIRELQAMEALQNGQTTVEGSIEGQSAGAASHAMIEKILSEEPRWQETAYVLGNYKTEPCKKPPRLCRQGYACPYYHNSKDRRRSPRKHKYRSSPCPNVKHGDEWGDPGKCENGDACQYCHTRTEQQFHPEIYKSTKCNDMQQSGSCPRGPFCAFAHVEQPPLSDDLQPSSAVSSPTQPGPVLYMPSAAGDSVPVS
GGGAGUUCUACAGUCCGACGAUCUCCAGCCUUUCCUGACUCACCUCCAUCUUCGGUUCUUCAGUUUUCUGAGAAGAGUUGGGAUAUGUGGGAAGGGGCAUGGGAGCUCGGCAGCCUCCGCCUGCCAGGAAGGCAGUUUCGCCUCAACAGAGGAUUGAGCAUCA: 0.0708 ratio
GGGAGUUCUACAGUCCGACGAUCGAGUGUCGGAACUCACCUGUGGCCAAAACACCCCCAAAGGACCUGCCAGCCAUUCCUGGGGUCACUAGCCCUACCAGCGAUGAGCCUCCCAUGCAAGCCAGCCAGAGCCAACUGCCCAGCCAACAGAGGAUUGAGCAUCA: 0.158 ratio
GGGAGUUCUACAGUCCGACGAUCCAACCAGGAGCACCUUUUGGUCCUUCUCUUCAGAGACCUGGUCAGGGACUCCCCAGCCUGCCCCCCAACACAAGUCCCUUCCCUGGUCCAGACCCUGGUUUUCCUGGCCCUGGCGGUGAGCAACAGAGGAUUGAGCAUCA: 0.226 ratio
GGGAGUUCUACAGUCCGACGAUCGACGAUGAGGCCGCCAUGGGUAUUAAGAGCUGCGACCCCAAAGGCCCACUUAUGAUGUACAUUUCCAAGAUGGUGCCAACCUCUGACAAAGGCCGCUUCUAUGCCUUUGGUAGAGUGUUCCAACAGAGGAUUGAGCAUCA: 0.371 ratio
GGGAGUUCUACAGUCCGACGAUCUUUGCAGUUUAUGAUGGUCAUGCUGGAUCCCGAGUGGCAAAUUACUGCUCAACACAUUUAUUAGAACACAUCACUACUAACGAAGACUUUAGGGCAGCUGGAAAAUCAGGAUCUGCUCUUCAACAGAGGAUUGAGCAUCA: 0.864 ratio
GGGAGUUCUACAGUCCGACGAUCGAUUAUACGUGGAAUUUACUAAAAGCUGGGAAAAUACCAGAGGAAUUUAAUGUAUUUAAUUUAAUACAAGAAAUGAGAACACAAAGGCAUUCUGCAGUACAAACAAAGGAGCAAUAUGAACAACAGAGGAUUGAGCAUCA: 0.228 ratio
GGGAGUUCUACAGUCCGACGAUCGGUUAUUUACUACUCUUCAAAGUCUUCUGUUACCCAAACAUACAGUUAAUAAUUAUCAAUUUAUGGAGUGCAUUUGGCUAAAAGUCUGUUUUGGGCUUACUAAAGGGAAUGCCUUCAUAGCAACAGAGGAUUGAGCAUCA: 0.587 ratio
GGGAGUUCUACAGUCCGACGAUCAGCACCUGUCCACAUGGUGAGCCCGGUGCUCCCCAACCACCCCCGCCAUGAGGACCAAUGACUAGCCAGUGUAGAAUAAGUUUGGCCAGAUAAGGAGAUGGCACUGCCAAGUGAUACAUGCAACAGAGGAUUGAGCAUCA: 0.491 ratio

Study 5 — method: protein-binding microarray; molecule type: double-stranded DNA, one strand shown; medium: in vitro; tested at: not given; direction: higher = stronger binding; measurement: E-score
Target: Protein max, full length (MAX, Homo sapiens, UniProt P61244-2, residues 1-151)
Notes: k-mer, scored over probes, only values ≥0.25
CACGATGC: 0.359
CCTCCCCA: 0.364
GCATGAGA: 0.301
CCTCGTGA: 0.462
GTGCTTCA: 0.279

Study 6 — method: universal PBM; molecule type: double-stranded DNA, one strand shown; medium: in vitro; tested at: not given; direction: higher = stronger binding; measurement: E-score
Target: Sal-like protein 4, full length isoform B (SALL4, Homo sapiens, UniProt Q9UJQ4-2, residues 1-616)
Notes: 8-mer, flanks averaged, mean of replicates
Target sequence (chain): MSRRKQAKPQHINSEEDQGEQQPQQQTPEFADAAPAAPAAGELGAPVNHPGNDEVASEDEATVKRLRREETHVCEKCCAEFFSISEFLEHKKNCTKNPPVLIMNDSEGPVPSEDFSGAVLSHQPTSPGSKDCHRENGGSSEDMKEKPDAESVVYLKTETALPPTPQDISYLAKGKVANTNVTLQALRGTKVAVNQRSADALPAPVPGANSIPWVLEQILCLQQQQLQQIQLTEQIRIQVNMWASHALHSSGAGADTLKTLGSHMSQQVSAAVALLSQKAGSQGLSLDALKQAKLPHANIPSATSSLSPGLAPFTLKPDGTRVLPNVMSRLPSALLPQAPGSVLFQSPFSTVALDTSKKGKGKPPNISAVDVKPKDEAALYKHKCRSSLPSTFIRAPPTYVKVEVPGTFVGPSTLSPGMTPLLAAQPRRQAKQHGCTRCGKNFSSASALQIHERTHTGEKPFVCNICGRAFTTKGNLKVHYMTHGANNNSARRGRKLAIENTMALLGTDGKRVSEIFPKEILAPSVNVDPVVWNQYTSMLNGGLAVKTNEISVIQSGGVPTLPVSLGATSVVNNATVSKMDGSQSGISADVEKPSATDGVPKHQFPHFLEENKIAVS
CACCATTA: 0.0406
CCCAACCG: -0.311
GACGGCAA: -0.183
CATGAGGA: 0.0451
GTAATGAC: 0.135
GAACTATC: -0.00718
AAGCCCCC: -0.352
ATAGTGTC: 0.0617

Excerpt of the above (study 5):
CCTCCCCA: 0.364
CCTCGTGA: 0.462
GTGCTTCA: 0.279
